Measured values from different studies.
Compare with care: the assays were run in different laboratories. Several values in a cell are separate wells, animals, samples, runs or records. Numbers after ± are the reported error.

SMILES | target or system | test | test system | setting | scale | endpoint | value
Nc1cccc2c1CN(C1CCC(=O)NC1=O)C2=O (centres unmarked) | bone marrow CD138+ myeloma cells | XTT | – | 1.4 µM, mean of three patients | – | viability | 40%
COc1ccc(NC(=S)N/N=C/c2cccc3cc4ccccc4nc23)cc1 | HeLa | annexin V/PI | – | concentration not given, 48 h, dosed at IC25 | – | late apoptotic cells | 11.7%
COc1cc(O)c2c(c1)C(=O)c1cc(C)cc(O)c1C2=O | HK-2 co-cultured with HepaRG | MTT | – | 66.67 µM, 24 h | reference: untreated control | viability | 104 ± 15%
O=C(O)c1ccccc1Cl | THP-1 | pyroptotic LDH release | – | 2 µM, 40 min, with: LPS then nigericin | – | inhibition | 44.8%
COC(=O)C1=C(C)NC(C)=C(C(=O)OC/C=C/c2ccc(Cn3ccnc3)cc2)C1c1cccc([N+](=O)[O-])c1 (centres unmarked) | HEK293T ATF4-FLuc reporter | ATF4 reporter gene, activator, luciferase reporter | – | – | – | EC50 | > 9960 nM
NC(=O)N1CCC(CC(=O)N2CCC([C@H]3c4ncc(Br)cc4CCc4cc(Cl)cc(Br)c43)CC2)CC1 | THP-1 | pyroptotic LDH release | – | 2 µM, 40 min, with: LPS then nigericin | – | inhibition | 18%
O=C(O)c1cc(O)c(O)c(O)c1 | Caco-2/THP-1 co-culture | TEER | – | 0.5 µg/mL, with: LPS 500 ng/mL | reference: control | transepithelial electrical resistance | 88.4 ± 5.7%
C[C@H](NC(=O)C(C)(F)F)[C@H](Oc1ccc2c(cnn2-c2cccc(C(=O)N[C@@H]3CCOC3)c2)c1)c1ccc2c(c1)OCCO2 | HEK293T ATF4-FLuc reporter | ATF4 reporter gene, activator, luciferase reporter | – | – | – | EC50 | 2580 nM
Cn1cc(-c2ccc(-c3cncc(Cl)c3N3CCC4(CCNC4=O)CC3)cc2)cn1 | COLO 205 | gene expression, microarray, measured: FLOT1 mRNA | – | concentration not given, 2 h | reference: untreated cells | log2 fold change | 2.08
O=C(NO)c1cnc(N2CCN(S(=O)(=O)c3ccc4ccccc4c3)CC2)nc1 | HEK293T ATF4-FLuc reporter | ATF4 reporter gene, activator, luciferase reporter | – | – | – | EC50 | 373 nM
O=C(O)Cc1ccc(O)cc1 | Caco-2/THP-1 co-culture | TEER | – | 0.05 µg/mL, with: LPS 50 ng/mL | reference: control | transepithelial electrical resistance | 75.3 ± 5.4%
CCN1CCN(Cc2ccc(NC(=O)c3ccc(C)c(-c4ccc5nc(NC(=O)C6CC6)cn5n4)c3)cc2C(F)(F)F)CC1 | MUTZ5 cells | Western blot, measured: JAK2, STAT5, STAT3 | – | concentration not given | – | phosphorylation | inhibited
N#Cc1ccnc(Nc2cc(C3CCN(C4COC4)CC3)cc(N3CCC(F)(F)C3)n2)c1 | THP-1 | pyroptotic LDH release | – | 2 µM, 40 min, with: LPS then nigericin | – | inhibition | 32.3%
Cc1ccc(CNC(=O)Cn2cc(CSc3nc4ccccc4[nH]3)nn2)cc1 | MDA-MB-231 | MTT | – | 125 ppm | – | cytotoxicity | 91.7%
O=C(Nc1nnc2n3c(Cc4ccccc4)n[nH]c3nc(-c3ccc(Cl)cc3)c1-2)c1ccccc1 | SF-268 | SRB | – | 10 µM, NCI60 single-dose screen | reference: untreated | cell growth | 101%
COc1cnc2cccc(N3CCc4c(cc(Cn5ccnc5C)cc4-c4cn(C)nc4C(F)(F)F)C3=O)c2c1 | NCI-H1975 | cell growth, inhibitor | – | 120 h | – | EC50 | 280 nM
COc1ncnc(NS(=O)(=O)c2ccc(N)cc2)c1OC | THP-1 | pyroptotic LDH release | – | 2 µM, 40 min, with: LPS then nigericin | – | inhibition | 30.6%
C=CC1=C(C)c2cc3[n-]c(cc4nc(cc5[n-]c(cc1n2)c(C)c5C=C)C(C)=C4CCC(=O)O)c(CCC(=O)O)c3C.[Zn+2] | SH-SY5Y | RNA-seq, measured: THBS1 mRNA | – | 5 µM, 5 h | reference: untreated cells | fold change | 1.6
C[C@H](NC(=O)C(=O)Nc1ccccc1C(C)(C)C)C(=O)N[C@@H](CC(=O)O)C(=O)COc1c(F)c(F)cc(F)c1F | THP-1 cells expressing FKBP-caspase-11 | pyroptosis, inhibitor | – | concentration not given, with: B/B dimerizer | – | LDH release | 16.5% and 16.6% and 17.9%
CCCN1CCN(c2ccc3[nH]c(-c4ccc5[nH]c(-c6cc(OC)c(OC)c(OC)c6)nc5c4)nc3c2)CC1 | SF-268 | SRB | – | 10 µM, 48 h | – | growth percent | 75.6%
Cc1nnn(C)c1-c1cnc2c3ccc(C(C)(C)O)cc3n([C@H](c3ccccc3)C3CCOCC3)c2c1 | HEK293T ATF4-FLuc reporter | ATF4 reporter gene, activator, luciferase reporter | – | – | – | EC50 | 1260 nM
COc1cccc(N(C)C(=S)Oc2ccc3c(c2)CCCC3)n1 | THP-1 | pyroptotic LDH release | – | 2 µM, 40 min, with: LPS then nigericin | – | inhibition | -0.784%
O=C(O)CCc1cccc(O)c1 | coculture, Caco-2, THP-1 | ELISA | – | 50 ng/mL, 8 h, with: LPS, IFNγ, ATP | reference: untreated control | IL-1β level | 10.3 ± 2 fold change
O=C(Nc1nccs1)c1cnn(-c2ccccc2)c1-n1cccc1 | human monocytes | phagocytosis of anti-D RBCs | – | 5 µM, lab-synthesized sample | – | inhibition | 42.1 ± 3.9%

SMILES | target or system | test | test system | setting | scale | endpoint | value
O=c1[nH]nc(OCCCc2ccc(Cl)cc2)c(NCc2cccnc2)c1Br | HEK293T | RNA-seq, measured: CBX4 mRNA | – | 10 µM, 6 h | reference: vehicle | log2 fold change | 0.0372
OC[C@@H](O)[C@H](O)[C@@H](O)CO | THP-1 | pyroptotic LDH release | – | 2 µM, 40 min, with: LPS then nigericin | – | inhibition | -6.76%
Cc1cnc2ccc3c(c2n1)N1CCC(O)N=C1N3C (centres unmarked) | BALB/c 3T3 | colony forming efficiency | – | 0.1 µM | – | colony number | 100 colonies per plate and 105 colonies per plate and 104 colonies per plate
COc1cc(-c2oc3cc(O)cc(O)c3c(=O)c2O)ccc1O | coculture, Caco-2, THP-1 | ELISA | – | 50 ng/mL, 8 h, with: LPS, IFNγ, ATP | reference: untreated control | IL-1β level | 7.5 ± 1.8 fold change
OC(CCN1CCCCC1)(c1ccccc1)C1CC2C=CC1C2 (centres unmarked) | – | resting-state EEG | healthy elderly humans | oral, 4 mg, eyes closed, LS mean | – | EEG Alpha2-power Fz-Cz | 2.7 µV²
CC(C)C[C@H](NC(=O)C[C@H](O)[C@H](CC(C)C)NC(=O)[C@H](Cc1c[nH]cn1)NC(=O)CNC(=O)[C@@H](NC(=O)[C@H](C)NC(=O)[C@H](Cc1c[nH]c2ccccc12)NC(=O)[C@H](CCC(N)=O)NC(=O)[C@@H](Cc1ccccc1)NC(=O)COCCOCCNC(=O)CCC(C(=O)O)N1CCN(CC(=O)O)CCN(CC(=O)O)CCN(CC(=O)O)CC1)C(C)C)C(N)=O (some centres unmarked) [lutetium-177 labelled] | – | – | female BALB/c nu/nu mice, tumor | intravenous, 50 pmol, 1 h | – | tissue uptake | 10 ± 2 %ID/g
CC(C)[C@H](NC(=O)[C@H](Cc1ccc(O)cc1)NC(=O)[C@H](Cc1ccc(O)cc1)NC(=O)[C@@H]1CCCN1C(=O)[C@H](CCC(=O)O)NC(=O)[C@H](CCC(=O)O)NC(=O)[C@H](Cc1c[nH]c2ccccc12)NC(=O)[C@@H]1CCCN1C(=O)[C@@H](NC(=O)[C@H](CCC(N)=O)NC(=O)c1ccc2c(c1)C(=O)OC21c2ccc(O)cc2Oc2cc(O)ccc21)C(C)C)C(=O)N[C@H](C(=O)N[C@@H](CCCCN)C(=O)N[C@@H](CCCCN)C(=O)N[C@@H](CO)C(=O)N[C@@H](CO)C(=O)NCC(=O)NCC(N)=O)C(C)C | – | – | human, plasma | intravenous infusion, 189.6 mg, predose, day 1 | – | plasma concentration | not detected
C=CCn1c(=O)c2cnc(Nc3ccc(N4CCN(C)CC4)cc3)nc2n1-c1ccc2c(n1)[C@@](O)(CC)CC2 | Kuramochi | flow cytometry | – | concentration not given, G2/M phase | – | γH2AX-positive cells | 26.2%
C=CC(=O)N1CCC(Oc2cc3c(Nc4ccc(Cl)c(Cl)c4F)ncnc3cc2OC)CC1 | THP-1 | pyroptotic LDH release | – | 2 µM, 40 min, with: LPS then nigericin | – | inhibition | -3.34%
CCn1cnc2c(-c3ccc(F)c(-c4ccc(S(=O)(=O)CC)cc4OC)c3)cnnc21 | HEK293T ATF4-FLuc reporter | ATF4 reporter gene, activator, luciferase reporter | – | – | – | EC50 | 6690 nM
O=C(O)c1cc(O)c2c(c1)[C@@H]([C@H]1c3cc(C(=O)O)cc(O)c3C(=O)c3c(O[C@@H]4O[C@H](CO)[C@@H](O)[C@H](O)[C@H]4O)cccc31)c1cccc(O[C@@H]3O[C@H](CO)[C@@H](O)[C@H](O)[C@H]3O)c1C2=O | THP-1 | pyroptotic LDH release | – | 2 µM, 40 min, with: LPS then nigericin | – | inhibition | -18.8%
C=C1C(=O)O[C@H]2[C@H]1CC/C(C)=C/CC[C@@]1(C)O[C@@H]21 | human iPSC cardiomyocytes | plate-normalised | – | concentration not given, hit retest | reference: vehicle controls, SDs below control | MyBP-C level change | 14.4 SD
COc1c(O[C@@H]2O[C@H](CO)[C@@H](O)[C@H](O)[C@H]2O)c(C)cc2c1C(=O)c1c(O)cccc1C2=O | HK-2 co-cultured with HepaRG | MTT | – | 133.33 µM, 24 h | reference: untreated control | cell viability | 59.1 ± 7.58%
CC(C)OC(=O)CCC/C=C\C[C@@H]1[C@@H](/C=C/[C@@H](O)COc2cccc(C(F)(F)F)c2)[C@H](O)C[C@@H]1O | HEK293T ATF4-FLuc reporter | ATF4 reporter gene, activator, luciferase reporter | – | – | – | EC50 | 9330 nM
Cn1cc(Nc2nccc(-c3ccc4c(c3)CN(C3COC3)CC[C@H]4NC(=O)c3cn(C(C)(C)C)nn3)n2)cn1 | human B cells | – | – | 100 nM, 64 h, stimulation-upregulated genes, with: CD40L, anti-IgM, IL-4 | – | number of upregulated genes | 9
CC(C)NCC(O)c1ccc(O)c(O)c1 (centres unmarked) | mouse ventricular cardiomyocytes | – | – | dose not given, 0.271 s | – | sarcomere length | 1.8 µm
C=Cc1c2[n-]c(c1C)/C=c1\[n-]/c(c(C)c1C=C)=C\c1[n-]c(c(CCC(=O)O)c1C)/C=c1\[n-]c(c(C)c1CCC(=O)O)=C2.[Sn+4] | SH-SY5Y | RNA-seq, measured: CXCL12 mRNA | – | 5 µM, 5 h | reference: untreated cells | fold change | 1.95
CCn1cc(-c2cc(Cn3ccnc3)cc3c2CCN([C@H](c2cc(OC)ccn2)C2CC2)C3=O)c(C(F)(F)F)n1 | OCI-Ly10 | cell growth, inhibitor | – | 120 h | – | EC50 | 650 nM
CCOC(=O)c1cc(Cl)cc(NC(=O)c2sc(Cl)cc2S(=O)(=O)N(C)c2ccc(OCC)c(OC)c2)c1 | primary mouse glial cells | qPCR, measured: ABCA1 | – | concentration not given, 24 h | – | mRNA level | increased
CCn1cc(-c2cc(Cn3ccoc3=N)cc3c2CCN([C@@H](C)c2cc(OC)ccn2)C3=O)c(C(F)(F)F)n1 | COV434 | cell growth, inhibitor | – | 120 h | – | EC50 | 241 nM
O=C(/C=C/C=C/C=C/C1CCCCC1)NC1=C[C@@](O)(/C=C/C=C/C=C/C(=O)NC2=C(O)CCC2=O)[C@@H]2O[C@@H]2C1=O | HuH-6 | cell growth, CellTiter-Glo | – | 78 h | – | GI50 | 21 µM
O=C(O)CCc1ccc(O)cc1 | Caco-2/THP-1 co-culture | – | – | 0.25 µg/mL, with: LPS 250 ng/mL | – | kynurenine level | 93.2 ± 1.2 % change
Cc1c(C)c2c(c(C)c1O)CCC(C)(COc1ccc(CC3SC(=O)NC3=O)cc1)O2 (centres unmarked) | HepG2 | MTT, measured: MTT response | – | 24 h, distribution mode 1 | – | point of departure | 0.339 µM

For quick reference, copied from above:
SMILES | target or system | test | test system | setting | scale | endpoint | value
C=CCn1c(=O)c2cnc(Nc3ccc(N4CCN(C)CC4)cc3)nc2n1-c1ccc2c(n1)[C@@](O)(CC)CC2 | Kuramochi | flow cytometry | – | concentration not given, G2/M phase | – | γH2AX-positive cells | 26.2%
CCn1cnc2c(-c3ccc(F)c(-c4ccc(S(=O)(=O)CC)cc4OC)c3)cnnc21 | HEK293T ATF4-FLuc reporter | ATF4 reporter gene, activator, luciferase reporter | – | – | – | EC50 | 6690 nM
Cn1cc(Nc2nccc(-c3ccc4c(c3)CN(C3COC3)CC[C@H]4NC(=O)c3cn(C(C)(C)C)nn3)n2)cn1 | human B cells | – | – | 100 nM, 64 h, stimulation-upregulated genes, with: CD40L, anti-IgM, IL-4 | – | number of upregulated genes | 9
COc1cc(-c2oc3cc(O)cc(O)c3c(=O)c2O)ccc1O | coculture, Caco-2, THP-1 | ELISA | – | 50 ng/mL, 8 h, with: LPS, IFNγ, ATP | reference: untreated control | IL-1β level | 7.5 ± 1.8 fold change
O=C(O)c1cc(O)c(O)c(O)c1 | Caco-2/THP-1 co-culture | TEER | – | 0.5 µg/mL, with: LPS 500 ng/mL | reference: control | transepithelial electrical resistance | 88.4 ± 5.7%
C=CC(=O)N1CCC(Oc2cc3c(Nc4ccc(Cl)c(Cl)c4F)ncnc3cc2OC)CC1 | THP-1 | pyroptotic LDH release | – | 2 µM, 40 min, with: LPS then nigericin | – | inhibition | -3.34%
